Measurements pooled from the literature.
Each line is one published result; not all experiments were run side by side. ± marks the error that the study gave.
Technique: steady-state kinetics
B1: SCO6712 V290N (Streptomyces coelicolor, UniProt Q9XAL8); chain AKGITARTAPAGGEVRHLKMYAEKLADGQMGYGFEKGKASVPGPLIEVNEGDTLHIEFTNTMDVRASLHVHGLDYEISSDGTAMNKSDVEPGGTRTYTWRTHKPGRRDDGTWRPGSAGYWHYHDHVVGTEHGTGGIRNGLYGPVIVRRKGDVLPDATHTIVFNDMTINNRKPHTGPDFEATVGDRVEIVMITHGEYYHTFHMHGHRWADNRTGILTGPDDPSRVIDNKITGPADSFGFQIIAGEGVGAGAWMYHCHNQSHSDMGMVGLFLVKKPDGTIPGYEPHEHGGATAKSGESGEPTGGAAAHEHEH
B2: enzyme (Acinetobacter baumannii, UniProt A0A5P1UDB1); chain MFIEQDIQLGYVPFPKSRAQQYRDEGCWKSQTHFQLLASLKDRFAQRVAVIQDDKQLTYQQLYDYAIHYGTYLKQQGIRETDFVLLQSPNVIEVFIVIFGLYAIGARPVFCLHGHGSYEIENIARQSRAVGFLKLCGSANESTATDVCEEFSKPNFKLWFRESIVSRSSIEASLPQLQGVAPAFNLRAQSESEDIAFLQLSGGTTGLPKLIPRTHADYIYSIEKSVDVAGLTQDTKQLVVLPVMHNFCMSSPGFLGVFYVGGTVVLSQLTHPRVCFELIEKYQIQQVSLVPAIATLWLNAESLKDYDLSSLQVVQVGGAKLLPSLAEQIIDTLQVKLQQVYGMAEGLVNFTHLDDSDQITIQTQGKKLSHLDEIRIADQDGNALPINAIGHIQTRGPYTINGYYNLPEINQRAFTQDGFYKTGDIGYLDENLNIVVTGREKEQINRSGEKITPSEIEEFILQYPSVKDVCVIGVSDDYLGERIKAIIIPKLDDSEINLKNIRKFLISKNIAHFKIPDEIEVVADFKYTHVGKVNRQKLG
B3: enzyme K56A (Nitrosopumilus maritimus, UniProt A9A5X4); chain MDSQKFDSIIFDCDGVLVDITQSYDKTIDKTCRYVLKEFAKIDSITIDHKIIDGFASSGGFNDEVDLVYAAILSLYTANKLNKKPSEFIYDVISNTDKTGIRSVQSYLESIYDVSEFLSKLGSLGDRHNNPVYSIFDQFFFGPELYGKLFDKQSKFSEEGMISNDKVILSVSLLETLQKEFGKKIAVVTGRGIESIRYSLKDMMDYFDTKNSAFLEDEPRELAKPNPATLIRAIQSMESKNCLYVGDSMEDYMMAKDAAQAGHSTTFCAIVGTSTNPEDRRKLFADSGVEMILESINDIPKVLNLV
B4: enzyme (Roseiflexus castenholzii, UniProt A7NLX0); chain MKIESITLHHIDMPLVAPFETSFGRETHRPCILIEMRADGLTGWGECVAGAGPWYAYETIGTAWHIISDFLAPMIVGQEITEPIGIVERFASVRGHPMARAAVEAAFWDLYAQARGVSLARLIGATRDRVTVGVSVGIELTLEAQLASIERFVAAGYARIKLKIKPGWDVAVVRAVRERWPDIALQVDANSAYTPDDAPIFRELDEMNLLLIEQPLHHDDIVDHARLQAQISTPICLDESIHSPEHARWALDIDACRVINIKIGRVGGLTAARQIHDLCAERGVPVWCGGMLETNVGRAVNLALAALPNFALPGDISASARYYHRDIAAPDFVLNDDSTITVPDTPGTGVAVLPERLRDVQVREVIIGKG
B5: enzyme (Schizosaccharomyces pombe, UniProt P78804); chain MSTPYEPEFQQAYKEIVGSIESSKLFEVHPELKRVLPIISIPERVLEFRVTWEDDKGNCRVNTGYRVQFNSALGPYKGGLRFHPSVNLSILKFLGFEQIFKNALTGLPMGGGKGGSDFDPKGKSDNEIRRFSQAFMRQLFRYIGPQTDVPAGDIGVTGFVVMHMFGEYKRLRNEYSGVVTGKHMLTGGSNIRPEATGYGVVYYVKHMIEHRTKGAETLKGKRVAISGSGNVAQYAALKCIQEGAIVKSISDSKGVLIAKTAEGLVPEEIHEIMALKEKRASIADSASLCKKHHYIAGARPWTNVGEIDIALPCATQNEVSGEEAAALIKQGCRYVAEGSNMGSSAEAVEVFEKSRASGEGCWLAPGKAANAGGVAVSGLEMAQNAQFSTWTHAEVDAKLAGIMQNIFEQSTDVASKYCDSGSNNIPSLVDGANIAGFLKVATAMQAVGDWW
B6: aspC A106G/A17N/A218G/A278L/A281T/A8Q/D18E/F210I/F212I/F350Y/G15S/G249S/I187A/I279A/I29V/I33V/I341V/I5L/I68L/I71L/L46M/M321L/M380L/N285S/N30D/N64T/S129T/S135A/S273G/S351L/T100S/V125I/V136I/V375I/Y244C (Escherichia coli, UniProt P00509); chain MFENLTAQPADPILSLNELFRADERPGKVDLGVGVYKDETGKTPVMTSVKKAEQYLLENETTKTYLGLDGLPEFGRCTQELLFGKGSALINDKRARTAQSPGGTGGLRVAADFLAKNTSVKRVWISNPTWPNHKAIFNSAGLEVREYAYYDAENHTLDFDALINSLNEAQAGDVVLFHGCCHNPTGADPTLEQWQTLAQLSVEKGWLPLIDIAYQGFGRGLEEDAEGLRAFAAMHKELIVASSCSKNFSLYNERVGACTLVAADSETVDRAFGQMKALARTNYSSPPAHGASVVATILSNDALRAIWEQELTDMRQRIQRLRQLFVNTLQEKGANRDFSFVIKQNGMFSYLGLTKEQVLRLREEFGVYAVASGRINVAGLTPDNMAPLCEAIVAVL
B7: enzyme (Sargassum horneri, UniProt A0A097IUG6); chain SPMAVASPSGFQKAMKTTLSSLGIDKATGITKPTTIYRNLPYPEVFKHEEQNKEGEVTKNGTFCVSTGQFTGRSPKDKYFVKQAPSDGKLDWGKINKGVASEVYKNIYDKAVKHYNTNVDKMYVFDGYCGTSPKSRKNVRIITELAWQHHFAKNMFIRPETEEEVANFVPDFTIINACKIVNEDYKELGLNSEVAVVFNVEESKAVITGTWYGGEMKKGIFSMMNYWLPLDGVMSMHCSANKGKDGDTALFFGLSGTGKTTLSADPARYLIGDDEHGWDDDGIFNFEGGCYAKTVNLSRENEPEIYDAIKRDALLENVIIKKNGEPDYADVSRTENTRVSYPIYHIDNYEPSGMGDHPKSIVFLTCDAFGVLPPVSRLSPGQAMYHFLSGYTAKVAGTERGVTEPTPNFSAGFGAAFLTLHPTVYADLLQEKLDKHGTQCFLINTGWTGGGYGVGKRMSIKATRACVDAVLDGSINKTKFTKEPVFGFEVPQELPNVPSKVLNPREAWSDKASYDATRTKLGDMFKNNFTKFVKPGMTDYTAYGPK
B8: enzyme (Plasmodium falciparum, UniProt C0H484); chain MVREAHELLDGSRPIPIDKITYELSQNIILAFDNHENINNKDIQIEIEGRVGLVIDKNKNRIKLPINTDAIIENNYSDFQAGIDRESFEYLLDYFHNMTLKKRLSIRNNDNNNNNMDNNNNNMDNNNNIHIHNSGNNTNQTHSYDKNADDNKPTCNYSYDKKNACIYDFLELKTTKSIDKYYVIKNNNSRIRTTTYLNDDNKQETESMMIQSLQKDNLNIWNVYTGNNYDYFDDDEEDDDDDYNNNNNNNNGDTGTKTNIATNNTHGLTTSKSQHIYNNLVDKNDSIDYRISINIEYTKPISKLYLSKNTPVHERLKERTTFINTYLGLQVDMTKIKTKNNELYEVEIEIPSKTIFKAMSNLRNKKDSNYLHFICSNLVNNIRGICSQLNVFKKSKHMLKNTMITKLNNNSNNQNNLSLLPNHPNDDTISSKEKEKFKKYIHSVLPIVGDY
B9: enzyme C93G/Y157F (Mus musculus, UniProt P60334); chain MERTELLKPRTLADLIRILHELFAGDEVNVEEVQAVLEAYESNPAEWALYAKFDQYRYTRNLVDQGNGKFNLMILCWGEGHGSSIHDHTDSHGFLKLLQGNLKETLFDWPDKKSNEMIKKSERTLRENQCAYINDSIGLHRVENVSHTEPAVSLHLFSPPFDTCHAFDQRTGHKNKVTMTFHSKFGIRTPFTTSGSLENN
B10: RPT3 (Arabidopsis thaliana, UniProt Q9FMF5); chain MMWESESDGGVGVGGGGGREYGDGVLSSNKHGGVKTDGFELRGQSWFVATDIPSDLLVKIGDMNFHLHKYPLLSRSGKMNRLIYESRDPDPTILILDDLPGGPEAFELASKFCYGVPVDLTATNISGLRCAAEYLEMTEDLEEGNLIFKTEAFLSYVVLSSWRDSILVLKSCEKLSPWAENLQIVRRCSESIAWKACSNPKGIRWAYTGKAPSPSTTNFAGSSPRWNESKDSSFYCSPSRNTNSQPVPPDWWFEDVSILRIDHFVRVITAIKVKGMRFELLGAVIMHYAGKWLPGLIKEGGVAIAPAMSSAIGGGLGLGGDEMSISCGSNSSGGSSGPDWKGGLHMVLSAGKTNGHQDSVACLAGLGISPKDQRMIVESLISIIPPQKDSVTCSFLLRLLRAANMLKVAPALITELEKRVGMQFEQATLQDLLIPGYNNKGETMYDVDLVQRLLEHFLVQEQTEGSSPSRMSPSPSQSMYADIPRGNNNNGGGGGGNNQNAKMRVARLVDSYLTEVARDRNLPLTKFQVLAEALPESARTCDDGLYRAIDSYLKAHPTLSEHERKRLCRVMDCQKLSMDACMHAAQNERLPLRVVVQVLFSEQVKISNALANTSLKESTTLGEAMGTYQPMIPNRKTLIEATPQSFQEGWAAAKKDINTLKFELETVKTKYVELQNEMEVMQRQFEKTGKVKNTPSSSAWTSGWKKLSKLTKMSGQESHDISSGGEQAGVDHPPPRKPRRWRNSIS
Sequence of UniProt P0AGF6 (whole entry, looked up): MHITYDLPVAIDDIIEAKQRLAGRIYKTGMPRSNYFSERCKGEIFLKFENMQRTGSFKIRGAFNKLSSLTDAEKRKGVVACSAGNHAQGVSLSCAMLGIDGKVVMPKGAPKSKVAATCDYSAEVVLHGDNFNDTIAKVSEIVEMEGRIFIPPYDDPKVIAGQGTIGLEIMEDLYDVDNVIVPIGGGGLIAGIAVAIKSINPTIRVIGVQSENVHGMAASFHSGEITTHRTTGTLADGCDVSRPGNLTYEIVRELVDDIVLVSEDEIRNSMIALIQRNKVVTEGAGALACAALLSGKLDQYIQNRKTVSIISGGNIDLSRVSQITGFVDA
Sequence of UniProt Q9R7D7 (whole entry, looked up): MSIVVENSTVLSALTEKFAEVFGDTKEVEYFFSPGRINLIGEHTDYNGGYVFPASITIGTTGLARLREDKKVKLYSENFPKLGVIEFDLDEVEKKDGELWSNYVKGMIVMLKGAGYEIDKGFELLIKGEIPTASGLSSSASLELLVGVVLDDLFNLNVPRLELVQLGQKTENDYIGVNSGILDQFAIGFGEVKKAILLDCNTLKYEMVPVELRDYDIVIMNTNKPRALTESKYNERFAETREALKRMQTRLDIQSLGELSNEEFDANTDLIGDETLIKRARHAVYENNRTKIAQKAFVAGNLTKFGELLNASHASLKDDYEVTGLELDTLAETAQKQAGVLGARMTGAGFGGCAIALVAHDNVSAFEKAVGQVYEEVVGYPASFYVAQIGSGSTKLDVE

Substance | substrate | pH | temperature | setting | with | kcat [s⁻¹]
B1 (SCO6712 V290N) | CCn1c(=NN=c2sc3cc(S(=O)(=O)O)ccc3n2CC)sc2cc(S(=O)(=O)O)ccc21 | pH 7 | 37 °C | NaCl 150 mM | O2 cosubstrate | 1.16 ± 0.02
B2 (enzyme) | O=C(O)c1ccc(F)cc1O | pH 7.5 | 37 °C | apparent | – | 0.0118 ± 0.0007
B3 (enzyme K56A) | N[C@H](COP(=O)(O)O)Cc1c[nH]cn1 | pH 7.8 | 25 °C | – | – | 0.0017 ± 0.0002
enzyme (Caenorhabditis elegans, UniProt Q86D21) | C[C@@H](O)[C@H](N)C(=O)O | pH 7.5 | 37 °C | – | ATP | 1.79 ± 0.18
enzyme (Escherichia coli, UniProt P0AGF6) | C[C@@H](O)[C@H](N)C(=O)O | pH 7.5 | 23 °C | apparent, not purified | PLP 0.1 mM, L-Thr | 2.04
gdh N192L (Bacillus subtilis) | NC(=O)c1ccc[n+]([C@@H]2O[C@H](COP(=O)(O)OP(=O)(O)OC[C@H]3O[C@@H](n4cnc5c(N)ncnc54)[C@H](O)[C@@H]3O)[C@@H](O)[C@H]2O)c1 | pH 7 | 40 °C | – | – | 18.9 ± 0.851
enzyme (Parabacteroides distasonis, UniProt A0A7L5EB83) | CC(=O)N[C@H]1[C@H](Oc2ccc([N+](=O)[O-])cc2)O[C@H](CO)[C@@H](O[C@@H]2O[C@H](CO)[C@H](O)[C@H](O)[C@H]2O)[C@@H]1O | pH 6 | 50 °C | – | – | 23.6 ± 0.9
enzyme (Klebsiella pneumoniae, UniProt A6THV5) | CSCC[C@@H](NC(C)=O)C(=O)O | pH 8 | 35 °C | – | – | 1.51 ± 0.0367
B4 (enzyme) | O=C(O)CCC(=O)C1=CC=C[C@@H](O)[C@@H]1C(=O)O | pH 8 | 25 °C | – | – | 55 ± 2
B5 (enzyme) | NC(=O)c1ccc[n+]([C@@H]2O[C@H](COP(=O)(O)OP(=O)(O)OC[C@H]3O[C@@H](n4cnc5c(N)ncnc54)[C@H](O)[C@@H]3O)[C@@H](O)[C@H]2O)c1 | pH 7 | 30 °C | apparent | – | 0.0073 ± 0.0003
B6 | N[C@@H](Cc1ccccc1)C(=O)O | pH 7.5 | 25 °C | – | PMP 20 µM | 0.24
B7 (enzyme) | C=C(OP(=O)(O)O)C(=O)O | pH 6.5 | 25 °C | – | 2 mM ADP | 41.4 ± 1.2
enzyme (Tannerella forsythia, UniProt G8UMQ6) | C[C@@H]1O[C@@H](Oc2ccc([N+](=O)[O-])cc2Cl)[C@@H](O)[C@H](O)[C@@H]1O | pH 8.4 | 40 °C | – | – | 155
B8 (enzyme) | O=P(O)(O)OP(=O)(O)OP(=O)(O)OC[C@H]1O[C@@H](n2cnc3c(O)ncnc32)[C@H](O)[C@@H]1O | – | – | – | Mn2+ | 0.39 ± 0.01
B9 (enzyme C93G/Y157F) | N[C@@H](CS)C(=O)O | pH 7.5 | 37 °C | – | – | > 0.88
enzyme (Lactococcus lactis, UniProt Q9R7D7) | Nc1ncnc2c1ncn2[C@@H]1O[C@H](COP(=O)(O)OP(=O)(O)OP(=O)(O)O)[C@@H](O)[C@H]1O | pH 8 | 24 °C | – | – | 11 ± 0.5
B10 (RPT3) | Nc1nc2c(ncn2[C@@H]2O[C@H](COP(=O)(O)OP(=O)(O)OP(=O)(O)O)[C@@H](O)[C@H]2O)c(=O)[nH]1 | pH 7.5 | 30 °C | – | – | 0.056
HNL E79H/K236M/T11G (Hevea brasiliensis) | CC(=O)Oc1ccc([N+](=O)[O-])cc1 | pH 7.2 | 22 °C | – | – | 0.0055 ± 0.000333
enzyme N248Y/R246H (Arabidopsis thaliana, UniProt O24495) | C[C@@H](O)C(=O)SC[C@H](NC(=O)CC[C@H](N)C(=O)O)C(=O)NCC(=O)O | pH 7.2 | 25 °C | – | – | 2.1 ± 0.2
enzyme (Cryptosporidium parvum, UniProt Q8IS93) | O=C(O)c1cc(SSc2ccc([N+](=O)[O-])c(C(=O)O)c2)ccc1[N+](=O)[O-] | pH 7.4 | – | – | NADPH 150 µM | 22.4 ± 0.428

Excerpt of the above:
Substance | substrate | pH | temperature | setting | with | kcat [s⁻¹]
enzyme (Tannerella forsythia, UniProt G8UMQ6) | C[C@@H]1O[C@@H](Oc2ccc([N+](=O)[O-])cc2Cl)[C@@H](O)[C@H](O)[C@@H]1O | pH 8.4 | 40 °C | – | – | 155
enzyme (Parabacteroides distasonis, UniProt A0A7L5EB83) | CC(=O)N[C@H]1[C@H](Oc2ccc([N+](=O)[O-])cc2)O[C@H](CO)[C@@H](O[C@@H]2O[C@H](CO)[C@H](O)[C@H](O)[C@H]2O)[C@@H]1O | pH 6 | 50 °C | – | – | 23.6 ± 0.9
B6 | N[C@@H](Cc1ccccc1)C(=O)O | pH 7.5 | 25 °C | – | PMP 20 µM | 0.24
